Experimental data from different studies.
Each line is one published result; not all experiments were run side by side. Numbers after ± are the reported error. Values after ≈ are worked out from the molar mass of the structure shown.

Structure (SMILES) = Cc1cc(O)c(C=O)c2c1C(=O)Oc1c(CO)c(O)c3c(c1O2)C(O)OC3=O (centres unmarked); system = male albino rats; setting = oral, 14 days; endpoint = maximum non-toxic dose; result = ≤ 100 mg/kg
Structure (SMILES) = CC[C@H](C)[C@H](NC(=O)[C@H](Cc1c[nH]c2ccccc12)NC(=O)[C@H](CCCCN)NC(=O)[C@H](CC(C)C)NC(=O)[C@@H](NC(=O)[C@@H](NC(=O)CNC(=O)[C@H](CCCCN)NC(=O)[C@H](Cc1c[nH]cn1)NC(=O)[C@H](CCCCN)NC(=O)[C@H](Cc1c[nH]c2ccccc12)NC(=O)[C@H](C)NC(=O)[C@H](CC(C)C)NC(=O)[C@H](CO)NC(=O)[C@@H](NC(=O)[C@H](Cc1ccc(O)cc1)NC(=O)[C@H](CCCCN)NC(=O)[C@H](CCC(N)=O)NC(=O)CNC(=O)[C@H](CCCCN)NC(=O)[C@@H](NC(=O)[C@H](C)NC(=O)[C@H](CC(C)C)NC(=O)[C@H](Cc1ccccc1)NC(=O)[C@H](CCC(N)=O)NC(=O)[C@@H](NC(=O)[C@H](CC(C)C)NC(=O)[C@H](CCCCN)NC(=O)[C@H](CCSC)NC(=O)[C@H](Cc1ccccc1)NC(=O)[C@H](C)NC(=O)[C@H](C)NC(=O)[C@H](CCSC)NC=O)[C@@H](C)CC)[C@@H](C)O)C(C)C)[C@@H](C)O)[C@@H](C)CC)C(=O)N[C@@H](CC(N)=O)C(=O)N[C@@H](C)C(=O)NCC(=O)N[C@@H](CCC(N)=O)C(=O)N[C@@H](CO)C(=O)N[C@@H](Cc1ccccc1)C(=O)N[C@@H](CCC(=O)O)C(=O)N[C@@H](Cc1c[nH]c2ccccc12)C(=O)N[C@H](C(=O)N[C@@H](Cc1ccc(O)cc1)C(=O)N[C@@H](CCCCN)C(=O)N[C@@H](CCC(N)=O)C(=O)N[C@H](C(=O)N[C@@H](CCCCN)C(=O)N[C@@H](CCCCN)C(=O)N[C@@H](CC(C)C)C(=O)N[C@@H](Cc1c[nH]c2ccccc12)C(=O)N[C@@H](C)C(=O)O)[C@@H](C)CC)[C@@H](C)CC; setting = 900 µM, pH 7.4, 25 °C; endpoint = zeta potential; result = 20.8 ± 3.8 mV
Structure (SMILES) = CSCC[C@H](NC(=O)CNC(=O)[C@H](CC(=O)O)NC(=O)[C@@H](NC(=O)[C@@H](NC(=O)[C@@H](NC(=O)CNC(=O)[C@H](CCC(=O)O)NC(=O)[C@H](CCSC)NC(=O)[C@H](CC(=O)O)NC(=O)[C@H](C)NC(=O)[C@H](C)NC(=O)[C@@H](NC(=O)[C@H](CO)NC(=O)[C@@H](N)CC(C)C)[C@@H](C)O)C(C)C)C(C)C)[C@@H](C)O)C(=O)N[C@@H](C)C(=O)N[C@@H](CO)C(=O)NCC(=O)N[C@@H](CC(C)C)C(=O)N[C@@H](CC(=O)O)C(=O)N[C@@H](CCCCN)C(=O)N[C@@H](CC(=O)O)C(=O)N[C@@H](Cc1ccc(O)cc1)C(=O)N[C@@H](CC(C)C)C(=O)N[C@@H](CCCCN)C(=O)N1CCC[C@H]1C(=O)N[C@@H](CC(=O)O)C(=O)N[C@@H](CC(=O)O)C(=O)O; system = male CD-1 mice, serum; setting = intravenous, 480 mg/kg; endpoint = t1/2 gamma; result = 34.1 h
Structure (SMILES) = CC[C@H](C)C(=O)N1CCC(NC(=O)Nc2ccc(OC(F)(F)F)c(F)c2)CC1; system = healthy volunteers; setting = oral, 2 mg single dose, ventricular extrasystoles; endpoint = subjects with extrasystoles TEAE; result = 16.7%
Structure (SMILES) = CSCC[C@H](NC(=O)[C@H](CC(N)=O)NC(=O)[C@@H](N)Cc1ccccc1)C(=O)N[C@@H](CCC(N)=O)C(=O)N[C@@H](C)C(=O)N[C@@H](CCC(N)=O)C(=O)N[C@@H](CCCNC(=N)N)C(=O)N[C@@H](CCCNC(=N)N)C(=O)N[C@@H](Cc1ccccc1)C(=O)N[C@@H](Cc1ccc(O)cc1)C(=O)N[C@@H](CCC(=O)O)C(=O)N[C@@H](C)C(=O)N[C@@H](CC(C)C)C(=O)N[C@@H](Cc1c[nH]cn1)C(=O)N[C@@H](CC(=O)O)C(=O)NCC(=O)NCC(=O)NCC(=O)NCC(=O)N[C@@H](CO)C(=O)N[C@@H](C)C(=O)N[C@@H](CCC(=O)O)C(=O)N[C@@H](C)C(=O)N[C@@H](CCC(=O)O)C(=O)N[C@@H](C)C(=O)N[C@@H](CCCCN)C(=O)N[C@@H](C)C(=O)N[C@@H](CCCCN)C(=O)N[C@@H](C)C(=O)N[C@@H](CCC(=O)O)C(=O)N[C@@H](C)C(=O)N[C@@H](CCC(=O)O)C(=O)N[C@@H](C)C(=O)N[C@@H](CCCCN)C(=O)N[C@@H](C)C(=O)N[C@@H](CCCCN)C(=O)O; assay = TEM; system = PBS; scale = up to; endpoint = fibril length; result = ≤ 1 µm
Structure (SMILES) = CN(C)C(CNC(=O)Nc1cc(C(F)(F)F)ccc1N1CCOCC1)c1ccncc1 (centres unmarked); system = mouse, serum; setting = intraperitoneal, 240 mg/kg single dose; endpoint = serum alkaline phosphatase; result = 75 U/L
Structure (SMILES) = c1ccc(C2(CCNC3CCC4(SCCS4)c4ccccc43)CCOC3(CCCC3)C2)nc1 (centres unmarked); system = rat; setting = intravenous, 0.15 mg/kg; endpoint = AUC(0-24 h); result = 137 ng·h/mL
Structure (SMILES) = CCN(Cc1ccccc1)C(=O)CCc1nc(CN2CCN(C(=O)Cc3ccc(OC)c(OC)c3)CC2)no1; assay = LC-MS; system = rat, DRG; setting = intravenous, 1 mg/kg, 2.0 h; endpoint = concentration; result = 77 ± 3 ng/g
Structure (SMILES) = CN[C@](C)(C[18F])C(=O)O; system = SCID mouse A549 xenograft, spleen; setting = 15 min, post injection; endpoint = tissue uptake; result = 10 ± 1.9 %ID/g
Structure (SMILES) = CC(C)[C@H](NC(=O)CNC(=O)[C@H](CCC(N)=O)NC(=O)[C@H](C)N)C(=O)O; system = human; setting = intravenous infusion, 45 mg/kg/h, 2 h infusion; endpoint = subjects with moderate adverse events; result = 0%
Structure (SMILES) = CC[C@@]1(O)C(=O)OCc2c1cc1n(c2=O)Cc2c-1nc1cc(F)c(C)c3c1c2[C@@H](NC(=O)CO)CC3; system = PAMPA; setting = 5 µM, 4 h, pH 5; endpoint = Papp; result = 13 ×10⁻⁶ cm/s
Structure (SMILES) = C/C=C/C=C/C/C=C/CCCCCCCc1cccc(O)c1O; system = female Kunming mice tumour-bearing, lungs; setting = intravenous, 10 mg/kg, 0.083 h; endpoint = tissue concentration; result = 28300 ± 2780 ng/g
Structure (SMILES) = O=C(NC1CCCCC1)Oc1cccc(-c2cccc(CO)c2)c1; system = rat plasma; endpoint = log hydrolysis rate constant; result = -1.81
Structure (SMILES) = COc1cc(NC(=O)C(=O)c2c(C)n(Cc3ccc(Cl)cc3)c3ccc(C)cc23)ccn1; system = cynomolgus monkey, male, plasma; setting = intravenous, 1 mg/kg; endpoint = clearance; result = 10.6 mL/min/kg
Structure (SMILES) = CC(=CCC(O)C(C)=Cc1csc(C)n1)CC=CC(C)C(O)C(C)C(=O)C(C)(C)C(O)CC(=O)O (centres unmarked); system = human, plasma; setting = intravenous infusion, 27 mg/m2 KOS-1584, 3 h infusion, cycle 1; endpoint = AUC; result = 319 ± 106 ng·h/mL
Structure (SMILES) = COc1cc2ccnc(Cc3ccc(O[11CH3])c(OC)c3)c2cc1OC; assay = PET; system = rhesus macaque, caudate; setting = intravenous, 3 min; endpoint = peak SUV; result = ~2.5
Structure (SMILES) = CC(=O)NC1C(OC2OC(CC(O)C3OC(n4ccc(=O)[nH]c4=O)C(O)C3O)C(O)C(O)C2NC(=O)COCc2ccc(N3CCC(Oc4ccc(OC(F)(F)F)cc4)CC3)cc2)OC(CO)C(O)C1O (centres unmarked); setting = neutral form; endpoint = water solubility; result = 12.5 mg/mL (≈ 12.3 mM)
Structure (SMILES) = CC(C)C[C@H](NC(=O)[C@H](CCCNC(=N)N)NC(=O)CNC(=O)[C@@H](N)CC(C)C)C(=O)N[C@@H](CO)C(=O)N[C@@H](CCC(N)=O)C(=O)N[C@@H](CCC(=O)O)C(=O)N[C@@H](CC(C)C)C(=O)N[C@@H](Cc1c[nH]cn1)C(=O)N[C@@H](CCCNC(=N)N)C(=O)N[C@@H](CC(C)C)C(=O)N[C@@H](CCC(N)=O)C(=O)N[C@H](C(=O)N[C@@H](Cc1ccc(O)cc1)C(=O)N1CCC[C@H]1C(=O)N[C@@H](CCCNC(=N)N)C(=O)N[C@H](C(=O)N[C@@H](CC(N)=O)C(=O)N[C@H](C(=O)NCC(=O)N[C@@H](CO)C(=O)N[C@@H](CC(N)=O)C(=O)N[C@H](C(=O)N[C@@H](Cc1ccc(O)cc1)C(N)=O)[C@@H](C)O)[C@@H](C)O)[C@@H](C)O)[C@@H](C)O; system = TgCRND8 mice; setting = icv, dose not given, 5 months; endpoint = mortality; result = 20%
Structure (SMILES) = CC(C)[C@H](NC(=O)CNC(=O)[C@H](CCC(N)=O)NC(=O)[C@H](C)N)C(=O)O; system = healthy male volunteers; setting = intravenous, 90 mg/kg/h, 2 h, together with: LPS 2 ng/kg; endpoint = subjects with moderate AE; result = 0%
Structure (SMILES) = C1=C(c2cc3c(Nc4ccc5scnc5c4)ncnc3s2)CCNC1; system = BALB/c mouse, plasma; setting = oral, 10 mg/kg, 30 min; endpoint = concentration; result = 305 ng/mL
Structure (SMILES) = CSCC[C@@H]1NC(=O)[C@@H]2CSSC[C@H](NC(=O)[C@H](CO)NC(=O)[C@H](C)N)C(=O)N[C@@H](CCCNC(=N)N)C(=O)N[C@@H]([C@@H](C)O)C(=O)N3CCC[C@H]3C(=O)N[C@@H](CCCCN)C(=O)N[C@@H](CC(=O)O)C(=O)N[C@H]3CSSC[C@H](NC(=O)[C@H](CCCCN)NC(=O)[C@H](CCCNC(=N)N)NC(=O)[C@H](CC(N)=O)NC1=O)C(=O)N[C@@H](CCCCN)C(=O)N[C@H]1CSSC[C@H](NC(=O)[C@@H]4CCCN4C(=O)[C@H](CC(=O)O)NC(=O)[C@H](C)NC3=O)C(=O)N[C@@H](C)C(=O)N[C@@H](CCCCN)C(=O)N[C@@H](CCC(=O)O)C(=O)N[C@@H]([C@@H](C)O)C(=O)NCC(=O)N[C@@H](CSSC[C@@H](C(N)=O)NC(=O)[C@H](CCCNC(=N)N)NC(=O)[C@H](CC(N)=O)NC1=O)C(=O)N1CCC[C@H]1C(=O)N[C@@H](Cc1ccc(O)cc1)C(=O)NCC(=O)N[C@@H](CCCCN)C(=O)N2; system = DA rat pristane-induced arthritis, serum; setting = subcutaneous, 0.1 mg/kg every other day, 21 days; endpoint = Chloride; result = 99.4 mmol/L
Structure (SMILES) = c1ccc(/N=c2\oc3ccccc3cc2-c2ccccc2)cc1; system = male albino rat; setting = oral, 24 h; endpoint = LD50; result = > 200 mg/kg
Structure (SMILES) = CCCCCCCCCCCCC(=O)O.O=C1CCCC2C3CCCN4CCCC(CN12)C34 (centres unmarked); assay = electrical conductivity; system = water; setting = 313.15 K, critical micelle concentration; endpoint = entropic term −TΔS of micellization; result = -8.14 kcal/mol
Structure (SMILES) = CC(=O)N(O)CCCP(=O)(O)O; system = Wistar rats; setting = oral, 14 days observation, single dose; endpoint = approximate LD50; result = > 3000 mg/kg
Structure (SMILES) = O=P1(NCCCl)NCCCO1 (centres unmarked); system = rat, plasma; setting = intravenous, 10 mg/kg, together with: ketoconazole 40 mg/kg oral 50 min before; endpoint = MRT(0-t); result = 6.54 ± 0.61 h
Structure (SMILES) = CCCC(=O)OC1O[C@@H]2O[C@@]3(C)CC[C@H]4[C@H](C)CCC([C@H]1C)[C@@]24OO3 (some centres unmarked); system = Tg(fli1:EGFP) zebrafish embryos; setting = 10 µg/mL, up to 48 hpf; endpoint = dead embryos; result = 3 count
Structure (SMILES) = O=C1Cc2cc(CCN3CCN(C4=NS(=O)(=O)c5ccccc54)CC3)c(Cl)cc2N1; system = human liver microsomes; setting = 1 µM, 30 min, 0.5 mg/mL protein; endpoint = percent metabolized; result = 0%
Structure (SMILES) = CC(C)C[C@H](NC(=O)[C@H](CCCCN)NC(=O)[C@H](CCC(=O)O)NC(=O)[C@H](C)NC(=O)[C@@H](NC(=O)[C@H](CCCCN)NC(=O)[C@H](CC(=O)O)NC(=O)[C@H](Cc1ccc(O)cc1)NC(=O)[C@H](Cc1ccccc1)NC(=O)[C@H](C)NC(=O)[C@H](CCCCN)NC(=O)[C@H](CC(C)C)NC(=O)[C@H](Cc1c[nH]c2ccccc12)NC(=O)[C@@H](N)CC(=O)O)C(C)C)C(=O)N[C@@H](CCCCN)C(=O)N[C@@H](CCC(=O)O)C(=O)N[C@@H](C)C(=O)N[C@@H](Cc1ccccc1)C(=O)N1CCC[C@H]1C(=O)N[C@@H](CC(=O)O)C(=O)N[C@@H](Cc1c[nH]c2ccccc12)C(=O)N[C@@H](C)C(=O)N[C@@H](CCCCN)C(=O)N[C@@H](C)C(=O)N[C@@H](C)C(=O)N[C@@H](Cc1ccc(O)cc1)C(=O)N[C@@H](CC(=O)O)C(=O)N[C@@H](CCCCN)C(=O)N[C@@H](C)C(=O)N[C@@H](C)C(=O)N[C@@H](CCC(=O)O)C(=O)N[C@@H](CCCCN)C(=O)N[C@@H](C)C(=O)N[C@@H](CCCCN)C(=O)N[C@@H](CCC(=O)O)C(=O)N[C@@H](C)C(=O)N[C@@H](C)C(=O)O; system = cynomolgus monkey, male, plasma; setting = IV infusion, 75 mg/kg/dose, day 1, 30 min infusion, end of infusion 0 h; endpoint = Tmax; result = 1 h
Structure (SMILES) = [2H]C([2H])([2H])C([2H])([2H])C([2H])([2H])OC(C(=O)OC1CCNCC1)(c1ccccc1)c1ccccc1; system = healthy Japanese male subjects, plasma; setting = oral, 15 mg once daily, day 1, fed, mean; endpoint = Cmax; result = 29.7 ng/mL
